Measured values of several laboratories.
Numbers after ± are the reported error.
Ribonucleoside-diphosphate reductase large subunit: Ribonucleoside-diphosphate reductase large subunit (Homo sapiens, UniProt P23921)
UniProt P23921, sequence (whole entry, looked up): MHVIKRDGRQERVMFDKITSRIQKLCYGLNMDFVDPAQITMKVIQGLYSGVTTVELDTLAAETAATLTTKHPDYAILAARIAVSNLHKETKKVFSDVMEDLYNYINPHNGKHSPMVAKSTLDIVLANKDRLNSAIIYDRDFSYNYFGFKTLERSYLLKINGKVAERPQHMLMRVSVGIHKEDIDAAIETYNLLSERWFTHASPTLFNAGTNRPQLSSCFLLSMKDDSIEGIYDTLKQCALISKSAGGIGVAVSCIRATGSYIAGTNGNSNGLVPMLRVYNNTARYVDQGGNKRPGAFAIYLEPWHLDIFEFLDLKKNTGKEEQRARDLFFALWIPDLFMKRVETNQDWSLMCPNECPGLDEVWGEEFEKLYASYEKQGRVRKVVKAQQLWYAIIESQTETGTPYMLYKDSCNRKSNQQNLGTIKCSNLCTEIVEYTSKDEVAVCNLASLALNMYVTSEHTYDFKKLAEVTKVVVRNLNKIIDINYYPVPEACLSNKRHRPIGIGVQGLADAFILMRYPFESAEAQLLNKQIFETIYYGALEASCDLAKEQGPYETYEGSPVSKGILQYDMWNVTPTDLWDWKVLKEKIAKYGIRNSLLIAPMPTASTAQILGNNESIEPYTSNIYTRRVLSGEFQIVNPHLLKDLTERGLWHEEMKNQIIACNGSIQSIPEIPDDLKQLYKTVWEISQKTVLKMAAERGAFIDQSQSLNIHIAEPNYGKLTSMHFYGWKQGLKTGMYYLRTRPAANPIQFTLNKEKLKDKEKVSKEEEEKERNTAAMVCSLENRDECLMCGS
Methyl-accepting chemotaxis protein Tlp3 sensing domain: Methyl-accepting chemotaxis protein Tlp3, sensing domain (Campylobacter jejuni, UniProt Q0P864)
BCL2L1: Bcl-2-like protein 1 (BCL2L1, Homo sapiens, UniProt Q07817)
UniProt Q07817, sequence (whole entry, looked up): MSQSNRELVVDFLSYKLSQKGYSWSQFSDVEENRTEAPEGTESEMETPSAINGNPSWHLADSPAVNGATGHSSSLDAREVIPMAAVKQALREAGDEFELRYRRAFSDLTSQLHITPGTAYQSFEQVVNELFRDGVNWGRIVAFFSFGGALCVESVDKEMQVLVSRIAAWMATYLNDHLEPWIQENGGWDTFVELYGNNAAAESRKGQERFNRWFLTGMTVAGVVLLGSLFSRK
UniProt P42330, sequence (whole entry, unmodified, looked up): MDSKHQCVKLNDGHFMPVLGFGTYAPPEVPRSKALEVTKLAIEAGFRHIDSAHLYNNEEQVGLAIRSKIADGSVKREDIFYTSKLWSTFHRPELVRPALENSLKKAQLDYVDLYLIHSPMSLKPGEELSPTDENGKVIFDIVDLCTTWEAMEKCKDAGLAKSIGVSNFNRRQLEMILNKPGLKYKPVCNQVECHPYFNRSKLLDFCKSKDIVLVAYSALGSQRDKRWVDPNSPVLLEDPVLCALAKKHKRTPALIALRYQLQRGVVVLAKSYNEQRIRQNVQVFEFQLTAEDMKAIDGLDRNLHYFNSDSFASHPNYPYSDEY
UniProt P0CG47, sequence (1-75, looked up): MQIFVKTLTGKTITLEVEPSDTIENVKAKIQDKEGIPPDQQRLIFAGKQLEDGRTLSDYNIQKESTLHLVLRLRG
UniProt P16070, sequence (whole entry, looked up): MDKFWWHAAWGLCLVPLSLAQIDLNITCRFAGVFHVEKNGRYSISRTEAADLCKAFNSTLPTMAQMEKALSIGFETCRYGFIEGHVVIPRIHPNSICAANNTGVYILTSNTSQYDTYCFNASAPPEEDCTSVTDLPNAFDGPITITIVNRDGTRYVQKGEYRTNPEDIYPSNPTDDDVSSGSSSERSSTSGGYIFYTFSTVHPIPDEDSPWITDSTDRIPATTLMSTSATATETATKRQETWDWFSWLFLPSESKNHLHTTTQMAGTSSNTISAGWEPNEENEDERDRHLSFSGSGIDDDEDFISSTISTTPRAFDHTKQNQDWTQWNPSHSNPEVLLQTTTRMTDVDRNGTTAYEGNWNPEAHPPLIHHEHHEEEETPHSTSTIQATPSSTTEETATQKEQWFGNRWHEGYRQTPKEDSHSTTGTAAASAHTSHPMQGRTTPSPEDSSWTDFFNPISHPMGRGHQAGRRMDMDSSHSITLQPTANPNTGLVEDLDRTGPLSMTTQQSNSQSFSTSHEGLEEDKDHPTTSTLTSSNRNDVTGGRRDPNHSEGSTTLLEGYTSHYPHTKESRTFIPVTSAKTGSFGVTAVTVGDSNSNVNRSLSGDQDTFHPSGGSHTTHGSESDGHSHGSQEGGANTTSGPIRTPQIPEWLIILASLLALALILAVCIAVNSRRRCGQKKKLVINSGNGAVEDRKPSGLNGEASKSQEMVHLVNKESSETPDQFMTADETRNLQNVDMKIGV
UniProt P00921, sequence (whole entry, looked up): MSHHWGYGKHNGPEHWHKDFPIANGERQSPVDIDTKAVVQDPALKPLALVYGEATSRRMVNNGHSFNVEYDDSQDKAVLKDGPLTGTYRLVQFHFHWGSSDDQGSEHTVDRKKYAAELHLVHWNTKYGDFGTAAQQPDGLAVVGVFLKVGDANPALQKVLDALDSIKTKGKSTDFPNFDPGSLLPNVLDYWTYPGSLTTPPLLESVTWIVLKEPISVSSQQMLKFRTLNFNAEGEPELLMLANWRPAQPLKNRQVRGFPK
UniProt Q15782, sequence (whole entry, looked up): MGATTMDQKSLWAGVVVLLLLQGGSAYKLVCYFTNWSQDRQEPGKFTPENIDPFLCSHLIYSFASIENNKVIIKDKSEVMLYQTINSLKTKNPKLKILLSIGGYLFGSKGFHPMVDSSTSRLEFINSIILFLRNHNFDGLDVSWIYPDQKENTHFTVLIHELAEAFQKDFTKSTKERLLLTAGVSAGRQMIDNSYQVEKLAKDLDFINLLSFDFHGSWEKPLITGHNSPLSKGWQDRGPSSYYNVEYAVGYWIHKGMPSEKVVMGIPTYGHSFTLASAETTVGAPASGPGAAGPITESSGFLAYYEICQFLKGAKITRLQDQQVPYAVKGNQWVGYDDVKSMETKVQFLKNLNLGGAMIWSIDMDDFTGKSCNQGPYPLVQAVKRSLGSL
UniProt P0DMS8, sequence (whole entry, looked up): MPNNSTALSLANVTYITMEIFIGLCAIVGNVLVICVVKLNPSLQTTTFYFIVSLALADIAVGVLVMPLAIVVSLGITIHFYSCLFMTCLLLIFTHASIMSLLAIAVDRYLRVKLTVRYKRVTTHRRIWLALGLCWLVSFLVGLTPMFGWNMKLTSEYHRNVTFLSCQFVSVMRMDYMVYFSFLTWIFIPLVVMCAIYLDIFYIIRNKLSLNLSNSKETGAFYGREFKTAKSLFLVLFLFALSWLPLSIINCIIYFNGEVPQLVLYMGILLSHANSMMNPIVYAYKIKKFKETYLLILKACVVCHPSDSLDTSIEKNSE
UniProt Q9HC29, sequence (whole entry, looked up): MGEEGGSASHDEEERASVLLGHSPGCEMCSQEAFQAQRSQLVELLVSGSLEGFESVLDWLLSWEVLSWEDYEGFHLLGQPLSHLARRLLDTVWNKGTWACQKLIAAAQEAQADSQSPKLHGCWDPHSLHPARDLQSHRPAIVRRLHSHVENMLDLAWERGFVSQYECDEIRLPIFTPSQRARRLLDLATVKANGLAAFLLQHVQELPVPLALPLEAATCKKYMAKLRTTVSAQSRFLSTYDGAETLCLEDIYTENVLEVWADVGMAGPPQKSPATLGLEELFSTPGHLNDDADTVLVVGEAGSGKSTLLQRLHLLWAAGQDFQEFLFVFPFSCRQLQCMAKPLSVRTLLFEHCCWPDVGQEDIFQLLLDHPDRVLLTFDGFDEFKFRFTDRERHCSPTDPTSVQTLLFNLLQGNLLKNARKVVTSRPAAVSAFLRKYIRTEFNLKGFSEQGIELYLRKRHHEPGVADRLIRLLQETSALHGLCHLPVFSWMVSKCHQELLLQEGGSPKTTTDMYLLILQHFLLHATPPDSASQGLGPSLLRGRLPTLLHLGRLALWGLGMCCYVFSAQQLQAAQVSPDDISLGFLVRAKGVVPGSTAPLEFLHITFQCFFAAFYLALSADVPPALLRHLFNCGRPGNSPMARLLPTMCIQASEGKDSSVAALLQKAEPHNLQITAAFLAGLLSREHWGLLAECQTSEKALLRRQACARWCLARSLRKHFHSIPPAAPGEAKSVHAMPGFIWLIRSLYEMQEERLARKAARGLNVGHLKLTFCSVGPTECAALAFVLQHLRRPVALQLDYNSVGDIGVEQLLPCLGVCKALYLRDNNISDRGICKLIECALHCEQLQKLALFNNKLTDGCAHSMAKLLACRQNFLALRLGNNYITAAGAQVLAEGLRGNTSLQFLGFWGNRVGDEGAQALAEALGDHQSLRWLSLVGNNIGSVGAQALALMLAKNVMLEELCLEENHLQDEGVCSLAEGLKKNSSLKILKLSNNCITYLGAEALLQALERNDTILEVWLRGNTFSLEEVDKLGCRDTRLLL
UniProt P02791, sequence (whole entry, looked up): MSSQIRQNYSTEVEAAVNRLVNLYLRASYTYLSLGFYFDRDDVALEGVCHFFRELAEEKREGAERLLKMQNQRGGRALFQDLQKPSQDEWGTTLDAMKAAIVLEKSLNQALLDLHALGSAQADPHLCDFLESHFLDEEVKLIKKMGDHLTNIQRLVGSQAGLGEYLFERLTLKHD
UniProt O15530, sequence (whole entry, looked up): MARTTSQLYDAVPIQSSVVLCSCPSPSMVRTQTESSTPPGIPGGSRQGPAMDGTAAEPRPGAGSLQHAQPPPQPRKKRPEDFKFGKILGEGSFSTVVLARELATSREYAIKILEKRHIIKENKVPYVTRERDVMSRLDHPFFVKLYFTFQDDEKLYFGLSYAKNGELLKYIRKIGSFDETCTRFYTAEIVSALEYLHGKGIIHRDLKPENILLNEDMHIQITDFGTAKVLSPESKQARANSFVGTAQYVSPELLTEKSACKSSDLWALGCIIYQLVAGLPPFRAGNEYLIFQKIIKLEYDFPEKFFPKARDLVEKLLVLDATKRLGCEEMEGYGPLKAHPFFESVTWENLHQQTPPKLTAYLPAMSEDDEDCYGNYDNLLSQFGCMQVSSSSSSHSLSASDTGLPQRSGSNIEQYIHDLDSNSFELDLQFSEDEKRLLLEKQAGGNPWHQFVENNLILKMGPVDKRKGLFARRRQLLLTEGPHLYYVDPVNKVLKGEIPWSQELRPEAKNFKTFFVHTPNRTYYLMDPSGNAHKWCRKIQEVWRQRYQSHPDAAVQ

COc1ccc(-n2nc3c(NC(=O)CCC(=O)NCCOCCOCCNC(=O)CCCCCNC(=O)COc4ccc(/C=C/C5=[N+]6C(=Cc7ccc(-c8cccs8)n7[B-]6(F)F)C=C5)cc4)nc4ccccc4n3c2=O)cc1
Kd (ADORA3 (Homo sapiens, UniProt P0DMS8); NanoBRET saturation binding; HEK293 expressing Nluc-A3; 1 h, 37 °C): 0.0246 ± 0.0083 µM

CC(=O)N[C@@H](CC(C)C)C(=O)N[C@@H](CCCCN)C(=O)N[C@@H](CCCCN)C(=O)N[C@@H](CC(C)C)C(=O)N[C@@H](CC(C)C)C(=O)N[C@@H](CCCCN)C(=O)N[C@@H](CC(C)C)C(=O)N[C@@H](CC(C)C)C(=O)N[C@@H](CCCCN)C(=O)N[C@@H](CCCCN)C(=O)N[C@@H](CC(C)C)C(=O)N[C@@H](Cc1c[nH]c2ccccc12)C(=O)N[C@@H](CCCCN)C(=O)N[C@@H](CC(C)C)C(=O)N[C@@H](C)C(=O)NCC(N)=O
Kd (HIV-1 TAR hairpin RNA; competitive fluorescence anisotropy; pH 7.4, 20 °C, together with: rhodamine-Rev peptide): 0.01 ± 0.001 µM

O=C(NNC(=O)c1ccccc1O)c1cccnc1
Kd (Ribonucleoside-diphosphate reductase large subunit; binding, fluorescence): 2.9 µM

O=P(O)(O)OC1[C@H](O)[C@H](OP(=O)(O)O)C(OP(=O)(O)O)[C@H](OP(=O)(O)O)[C@H]1O (stereo partly shown)
Kd (3-phosphoinositide-dependent protein kinase 1, PH domain (PDPK1, Homo sapiens, UniProt O15530); binding, FRET competition): 0.11 ± 0.02 µM

Cn1cnc2c1c(=O)n(CCCn1c(=O)c3[nH]cnc3n(C)c1=O)c(=O)n2C
Kd (Chitinase-3-like protein 2 (CHI3L2, Homo sapiens, UniProt Q15782); tryptophan fluorescence; pH 7.5): 100 ± 7 µM

CCC[C@H](N)C(=O)O
Kd (Methyl-accepting chemotaxis protein Tlp3 sensing domain; binding, thermal shift unfolding equilibrium; at To sensing domain): 1580 ± 671 µM

CN[C@H]1C(=O)N[C@@H]2Cc3ccc(cc3)Oc3cc4cc(c3O[C@@H]3O[C@H](C(=O)O)[C@@H](O)[C@H](O)[C@H]3NC(=O)CCCCCCCCC(C)C)Oc3ccc(cc3Cl)[C@@H](O)[C@@H]3NC(=O)[C@H](NC(=O)[C@@H]4NC(=O)[C@@H](NC2=O)c2cc(cc(O)c2Cl)Oc2cc1ccc2O)c1ccc(O)c(c1)-c1c(O[C@H]2O[C@H](CO)[C@@H](O)[C@H](O)[C@@H]2O)cc(O)cc1[C@@H](C(=O)NCCCN(C)C)NC3=O
Kd (Polyubiquitin-B, residues 1-75 fusion (UBB, Homo sapiens, UniProt P0CG47); SPR; 25 °C, immobilised ubiquitin fusion): 0.14 ± 0.02 µM

Oregon Green
Kd (calcium; fluorescence; 22 °C): 32.2 µM

O=[N+]([O-])c1ccc2c(ccn2[C@H]2C[C@H](O)[C@@H](COP(=O)(O)OP(=O)(O)OP(=O)(O)O)O2)c1
Kd (Ribonucleoside-diphosphate reductase large subunit; binding, isothermal titration calorimetry; 25 °C, stronger site (allosteric S-site)): 44 µM

Nc1ccn([C@H]2C[C@H](O)[C@@H](COP(=O)(O)NP(=O)(O)OP(=O)(O)O)O2)c(=O)n1
Kd (DNA polymerase beta, with single-nucleotide gapped DNA (POLB, Homo sapiens, UniProt P06746); NMR lineshape analysis; 23 °C, binary polymerase-DNA complex with MgCl2): 3.8 µM

CC(C)c1cccc(C2(C(F)(F)F)N=N2)c1F
Kd (FTL (Equus caballus, UniProt P02791); ligand displacement, fluorescence): 6.6 µM

CC(=O)N[C@H]1[C@H](O[C@H]2[C@H](O)[C@@H](O)[C@H](O[C@H]3[C@H](O)[C@@H](CO)O[C@@H](O[C@H]4[C@H](O)[C@@H](O)[C@H](O[C@H]5[C@H](O)[C@@H](CO)O[C@@H](O[C@H]6[C@H](O)[C@@H](O)[C@H](O[C@H]7[C@H](O)[C@@H](CO)OC(O)[C@@H]7NC(C)=O)O[C@@H]6C(=O)O)[C@@H]5NC(C)=O)O[C@@H]4C(=O)O)[C@@H]3NC(C)=O)O[C@@H]2C(=O)O)O[C@H](CO)[C@@H](O)[C@@H]1O[C@@H]1O[C@H](C(=O)O)[C@@H](O)[C@H](O)[C@H]1O (stereo partly shown)
Kd (CD44 antigen (Homo sapiens, UniProt P16070); binding, ITC; pH 6.7): 24.6 µM

FGAQLGRVASDF
Kd (BCL2L1; yeast display titration; peptide; 2 h, pH 8.0, room temperature): 0.009 ± 0.002 µM

CC(C)C[C@H](N)C(=O)O
Kd (Methyl-accepting chemotaxis protein Tlp3 (Campylobacter jejuni, UniProt Q0P864); binding, ITC; melting temperature): 799 ± 38 µM

c1ccc2nc3ccccc3cc2c1
Kd (HIV-1 nucleocapsid-SL4 RNA complex; binding, ESI-FTMS; pH 7.5): 46.1 ± 3.4 µM

CC(C)[C@H](N)C(=O)O
Kd (Methyl-accepting chemotaxis protein Tlp3 sensing domain; binding, thermal shift; unfolding equilibrium constant at To): 2290 ± 534 µM

O=S(=O)(O)c1cccc2c(-c3ccc(Nc4ccccc4)c4c(S(=O)(=O)O)cccc34)ccc(Nc3ccccc3)c12
Kd (uncharacterized protein (Drosophila suzukii, UniProt A0AB39ZGK5); fluorescent probe titration): 0.829 µM

CC(=O)N[C@@H]1[C@@H](O[C@H](C)C(=O)N[C@@H](C)C(=O)O)[C@H](O)[C@@H](CN)O[C@@H]1O
Kd (NOD2 (Homo sapiens, UniProt Q9HC29); binding, BSI; HEK293T vesicles): binds

CC(=O)N[C@@H](CC(C)C)C(=O)N[C@@H](CCCCN)C(=O)N[C@@H](CCCCN)C(=O)N[C@@H](CC(C)C)C(=O)N[C@@H](Cc1c[nH]c2ccccc12)C(=O)N[C@@H](CCCCN)C(=O)N[C@@H](CC(C)C)C(=O)N[C@@H](CC(C)C)C(=O)N[C@@H](CCCCN)C(=O)N[C@@H](CCCCN)C(=O)N[C@@H](CC(C)C)C(=O)N[C@@H](CC(C)C)C(=O)N[C@@H](CCCCN)C(=O)N[C@@H](CC(C)C)C(=O)N[C@@H](C)C(=O)NCC(N)=O
Kd (HIV-1 TAR hairpin RNA; competitive fluorescence anisotropy; pH 7.4, 20 °C, together with: rhodamine-Rev peptide): 0.0098 ± 0.0007 µM

CC[N+](CC)(CC)CC
Kd (maxi-KCa channel, rat; fast channel block, blocker, single-channel recording at +30 mV; external application, open state): 190 ± 37 µM

Nc1ncnc2c1ncn2[C@@H]1O[C@H](COP(=O)(O)OP(=O)(O)OP(=O)(O)O)[C@@H](O)[C@H]1O
Kd (BCKDK (Homo sapiens, UniProt O14874); binding, surface plasmon resonance): 15 µM

CC(=O)N[C@@H](CC(C)C)C(=O)N[C@@H](CCCCN)C(=O)N[C@@H](CCCCN)C(=O)N[C@@H](CC(C)C)C(=O)N[C@@H](CC(C)C)C(=O)N[C@@H](CCCCN)C(=O)N[C@@H](CC(C)C)C(=O)N[C@@H](CC(C)C)C(=O)N[C@@H](CCCCN)C(=O)N[C@@H](CCCCN)C(=O)N[C@@H](CC(C)C)C(=O)N[C@@H](CC(C)C)C(=O)N[C@@H](CCCCN)C(=O)N[C@@H](Cc1c[nH]c2ccccc12)C(=O)N[C@@H](C)C(=O)NCC(N)=O
Kd (HIV-1 TAR hairpin RNA; competitive fluorescence anisotropy; pH 7.4, 20 °C, together with: rhodamine-Rev peptide): 0.0078 ± 0.0006 µM

O=C(N/N=C/c1cc(-c2ccsc2)ccc1O)c1ccccc1O
Kd (Ribonucleoside-diphosphate reductase large subunit; binding, fluorescence): 5.3 µM

CN1/C(=C/C=C/c2cc[n+](CCCS(=O)(=O)[O-])c3ccccc23)C(C)(C)c2ccccc21
Kd (scFv K7, soluble; fluorescence titration): 0.0103 ± 0.0007 µM

N=C(N)NCCC[C@H](NC(=O)c1ccc2c(c1)C(=O)OC21c2ccc(O)cc2Oc2cc(O)ccc21)C(=O)N[C@@H](CO)C(=O)N[C@@H](CCCNC(=N)N)C(=O)N[C@@H](CO)C(=O)N[C@@H](CCCNC(=N)N)C(=O)N[C@@H](CO)C(=O)N[C@@H](CCCNC(=N)N)C(=O)N[C@@H](CO)C(=O)N[C@@H](CCCNC(=N)N)C(=O)N[C@@H](CO)C(=O)N[C@@H](CCCNC(=N)N)C(=O)N[C@@H](CO)C(=O)N[C@@H](CCCNC(=N)N)C(=O)N[C@@H](CO)C(=O)N[C@@H](CCCNC(=N)N)C(=O)N[C@@H](CO)C(=O)N[C@@H](CCCNC(=N)N)C(=O)N[C@@H](CO)C(=O)N[C@@H](CCCNC(=N)N)C(=O)N[C@@H](CO)C(=O)N[C@@H](CCCNC(=N)N)C(=O)N[C@@H](CO)C(=O)N[C@@H](CCCNC(=N)N)C(=O)N[C@@H](CO)C(=O)N[C@@H](CCCNC(=N)N)C(=O)N[C@@H](CO)C(=O)N[C@@H](CCCNC(=N)N)C(=O)N[C@@H](CO)C(=O)N[C@@H](CCCNC(=N)N)C(=O)N[C@@H](CO)C(=O)N[C@@H](CCCNC(=N)N)C(=O)N[C@@H](CO)C(=O)O
Kd (SRPK1 ΔN; peptide binding, fluorescence; together with: fluorescein-labelled Arg-Ser peptide): 0.16 ± 0.025 µM

NC(=O)c1ccc[n+]([C@@H]2O[C@H](COP(=O)([O-])OP(=O)(O)OC[C@H]3O[C@@H](n4cnc5c(N)ncnc54)[C@H](O)[C@@H]3O)[C@@H](O)[C@H]2O)c1
Kd (AKR1C3 (Homo sapiens, UniProt P42330, K104D); tryptophan fluorescence titration; pH 7.0, 25 °C): 410 ± 52 µM

Oc1coccc1=S
Kd (Carbonic anhydrase 2, Co(II)-substituted (CA2, Bos taurus, UniProt P00921); binding, UV-vis titration; overall): 198 µM

COc1ccc(-c2ccoc2)c(/C=N/NC(=O)c2ccccc2O)c1O
Kd (Ribonucleoside-diphosphate reductase large subunit; binding, fluorescence): 9.3 µM

CN[C@H](CC(C)C)C(=O)N[C@H]1C(=O)N[C@@H](CC(N)=O)C(=O)N[C@H]2C(=O)N[C@H]3C(=O)N[C@H](C(=O)N[C@H](C(=O)O)c4cc(O)cc(O)c4-c4cc3ccc4O)[C@H](O)c3ccc(c(Cl)c3)Oc3cc2cc(c3O[C@@H]2O[C@H](CO)[C@@H](O)[C@H](O)[C@H]2O[C@H]2C[C@](C)(N)[C@H](O)[C@H](C)O2)Oc2ccc(cc2Cl)[C@H]1O
Kd (acetyl-Lys-D-Ala-D-Ala; binding, microscale thermophoresis; 25 °C): 1 ± 0.3 µM

O=C1Nc2ccccc2/C1=N/NC(=O)c1ccccc1O
Kd (Ribonucleoside-diphosphate reductase large subunit; binding, fluorescence): 6.2 µM

VAQELRRYGDEY
Kd (BCL2L1; yeast display titration; peptide; 2 h, pH 8.0, room temperature): 0.0024 ± 0.0003 µM

Repeated from above:
CN[C@H](CC(C)C)C(=O)N[C@H]1C(=O)N[C@@H](CC(N)=O)C(=O)N[C@H]2C(=O)N[C@H]3C(=O)N[C@H](C(=O)N[C@H](C(=O)O)c4cc(O)cc(O)c4-c4cc3ccc4O)[C@H](O)c3ccc(c(Cl)c3)Oc3cc2cc(c3O[C@@H]2O[C@H](CO)[C@@H](O)[C@H](O)[C@H]2O[C@H]2C[C@](C)(N)[C@H](O)[C@H](C)O2)Oc2ccc(cc2Cl)[C@H]1O
Kd (acetyl-Lys-D-Ala-D-Ala; binding, microscale thermophoresis; 25 °C): 1 ± 0.3 µM

O=C1Nc2ccccc2/C1=N/NC(=O)c1ccccc1O
Kd (Ribonucleoside-diphosphate reductase large subunit; binding, fluorescence): 6.2 µM
